Experimental data gathered from unrelated publications.
Numbers after ± are the reported error.
Cell line: RAW264.7

SMILES | effect on | technique | tested at | time | notes | with | viability
CC(=O)O[C@@H]1CC[C@@]2(C)C(CC[C@]3(C)C2C(=O)C=C2C4[C@@H](C)[C@H](C)CC[C@]4(C)CC[C@]23C)[C@@]1(C)C(=O)N/N=C1/C(=O)Nc2ccccc21 (stereo partly shown) | cell growth or viability | MTT | 25 µM | 24 h | – | – | 99%
CC(C)=CCc1c(O)c(CC=C(C)C)c2occ(-c3ccc(O)c(O)c3)c(=O)c2c1O | cell growth or viability | MTT | 6.25 µg/mL | 24 h | – | – | 113%
Clc1ccc(NCc2cn(-c3ccccc3)nc2-c2ccc(OCc3ccccc3)cc2)cc1 | – | MTT | 20 µM | 24 h | – | LPS | 84 ± 2.41%
CC(C)=CCc1cc(-c2coc3cc(O)c(CC=C(C)C)c(O)c3c2=O)ccc1O | cell growth or viability | MTT | 6.25 µg/mL | 24 h | – | – | 124%
CCC(=O)NCc1ccccc1 | cell growth or viability | MTT | 200 µM | 24 h | – | – | 101%
COc1cc(C=O)ccc1OC(=O)COC(=O)[C@]1(C)C2CC[C@]3(C)C(C(=O)C=C4C5[C@@H](C)[C@H](C)CC[C@]5(C)CC[C@]43C)[C@@]2(C)CC[C@H]1OC(C)=O (stereo partly shown) | cell growth or viability | MTT | 25 µM | 24 h | – | – | 84%
COc1cc2c(cc1O)[C@]1(O)C(=O)c3c(O)cc4c(c3O[C@@H]1CO2)C=CC(C)(C)O4 | cell growth or viability | MTT | 6.25 µg/mL | 24 h | – | – | 109%
COc1ccc(/C=N\NC(=O)[C@]2(C)C3CC[C@]4(C)C(C(=O)C=C5C6[C@@H](C)[C@H](C)CC[C@]6(C)CC[C@]54C)[C@@]3(C)CC[C@H]2OC(C)=O)cc1OC (stereo partly shown) | cell growth or viability | MTT | 25 µM | 24 h | – | – | 86%
Brc1ccc(NCc2cn(-c3ccccc3)nc2-c2ccc(OCc3ccccc3)cc2)cc1 | – | MTT | 20 µM | 24 h | – | LPS | 41 ± 2.84%
COc1ccc(OC)c(/C=N\NC(=O)[C@]2(C)C3CC[C@]4(C)C(C(=O)C=C5C6[C@@H](C)[C@H](C)CC[C@]6(C)CC[C@]54C)[C@@]3(C)CC[C@H]2OC(C)=O)c1 (stereo partly shown) | cell growth or viability | MTT | 25 µM | 24 h | – | – | 85%
CC(C)=CCc1cc([C@@H]2CC(=O)c3c(O)cc(O)c(CC=C(C)C)c3O2)cc(CC=C(C)C)c1O | – | MTT | concentration not given | – | – | – | 3.67 ± 0.9%
C=CCc1ccc(OC(=O)CSc2nnc([C@]3(C)C4CC[C@]5(C)C(C(=O)C=C6C7[C@@H](C)[C@H](C)CC[C@]7(C)CC[C@]65C)[C@@]4(C)CC[C@H]3OC(C)=O)o2)c(OC)c1 (stereo partly shown) | cell growth or viability | MTT | 25 µM | 24 h | – | – | 99%
Cc1ccc(NCc2cn(-c3ccc(S(N)(=O)=O)cc3)nc2-c2ccc(OCc3ccccc3)cc2)cc1 | – | MTT | 20 µM | 24 h | 10% FBS | LPS | > 90%
COc1c(CC=C(C)C)c(O)cc2c1-c1oc3c(CC=C(C)C)c(O)ccc3c1CO2 | – | MTT | concentration not given | – | – | – | 99.4 ± 0.6%
CC(=O)O[C@@H]1CC[C@@]2(C)C(CC[C@]3(C)C2C(=O)C=C2C4[C@@H](C)[C@H](C)CC[C@]4(C)CC[C@]23C)[C@@]1(C)C(=O)N/N=C\c1ccccc1 (stereo partly shown) | cell growth or viability | MTT | 25 µM | 24 h | – | – | 92%
COc1ccc2c3c(oc2c1CC=C(C)C)-c1cc(CC=C(C)C)c(O)cc1OC3 | – | MTT | concentration not given | – | – | – | 56.1 ± 2.4%
Cc1ccc(CN2C(=O)/C(=N\c3ccc(Cl)cc3Br)c3ccccc32)cc1 | – | – | up to 5 µM | 48 h | – | – | no effect
COc1c2c(cc3c1[C@@H]1Oc4c(ccc(O)c4CC=C(C)C)[C@@H]1CO3)OC(C)(C)C=C2 | – | MTT | concentration not given | – | – | – | 2.8 ± 0.1%
C=CCc1ccc(OC(=O)COC(=O)[C@]2(C)C3CC[C@]4(C)C(C(=O)C=C5C6[C@@H](C)[C@H](C)CC[C@]6(C)CC[C@]54C)[C@@]3(C)CC[C@H]2OC(C)=O)c(OC)c1 (stereo partly shown) | cell growth or viability | MTT | 25 µM | 24 h | – | – | 96%
CC(C)=CCc1cc2c(cc1O)OC[C@H]1c3ccc(O)c(CC=C(C)C)c3O[C@@H]21 | – | MTT | concentration not given | – | – | – | 3.3 ± 0.2%
Clc1ccccc1NCc1cn(-c2ccccc2)nc1-c1ccc(OCc2ccccc2)cc1 | – | MTT | 20 µM | 24 h | – | LPS | 71 ± 2.35%
CC(C)=CCc1c(O)ccc2c1O[C@H]1c3cc4c(cc3OC[C@@H]21)OC(C)(C)C=C4 | – | MTT | concentration not given | – | – | – | 3.4 ± 0.1%
COc1cccc(/C=N\NC(=O)[C@]2(C)C3CC[C@]4(C)C(C(=O)C=C5C6[C@@H](C)[C@H](C)CC[C@]6(C)CC[C@]54C)[C@@]3(C)CC[C@H]2OC(C)=O)c1 (stereo partly shown) | cell growth or viability | MTT | 25 µM | 24 h | – | – | 94%
CC(C)=CCc1cc([C@@H]2CC(=O)c3ccc(O)c(CC=C(C)C)c3O2)c(O)c(CC=C(C)C)c1O | – | MTT | concentration not given | – | – | – | 12.1 ± 1.1%
COc1ccc(-c2coc3c(CC=C(C)C)c(O)c(CC=C(C)C)c(O)c3c2=O)cc1O | cell growth or viability | MTT | 100 µg/mL | 24 h | – | – | 5.12%

A few entries again:
SMILES | effect on | technique | tested at | time | notes | with | viability
CC(=O)O[C@@H]1CC[C@@]2(C)C(CC[C@]3(C)C2C(=O)C=C2C4[C@@H](C)[C@H](C)CC[C@]4(C)CC[C@]23C)[C@@]1(C)C(=O)N/N=C\c1ccccc1 (stereo partly shown) | cell growth or viability | MTT | 25 µM | 24 h | – | – | 92%
